Experimental data pooled from the literature.
Parts stem from different laboratories: compare values within a part only. Substitutions count along the parent as printed.

Series 1 — target: CCNB3, cyclin fold, Cln2 fusion (human); method: yeast growth competition, sequencing; sample: yeast; setting: weak parent motif; relative to: not given; direction: higher = stronger binding
Starting sequence: MICAL3 docking peptide (human); LQLRRQLSFSEDS; partner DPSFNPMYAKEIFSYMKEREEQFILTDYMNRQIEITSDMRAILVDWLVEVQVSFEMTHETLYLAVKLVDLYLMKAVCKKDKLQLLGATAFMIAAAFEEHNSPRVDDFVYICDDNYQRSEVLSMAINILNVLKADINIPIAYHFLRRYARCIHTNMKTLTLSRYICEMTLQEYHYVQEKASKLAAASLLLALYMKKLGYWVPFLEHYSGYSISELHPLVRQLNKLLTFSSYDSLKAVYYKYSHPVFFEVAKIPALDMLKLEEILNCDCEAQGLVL
| Variant | normalised enrichment score |
| --- | --- |
| S10K | 0.242 |
| R4E | -0.541 |
| S8F | 0.885 |
| L7P | -0.0393 |
| L3P | 0.278 |
| S10Q | 0.0407 |
| L7C | 0.0512 |
| S8G | -0.0041 |
| Q2T | 0.0779 |
| D12G | -0.0212 |
| R5P | 0.159 |
| L3A | 0.336 |
| Q6P | 0.0997 |
| D12L | 0.275 |
| L3M | -0.148 |
| S10M | 0.185 |
| S10R | 0.354 |
| R4S | 0.00109 |
| L3I | 0.375 |
| R5W | 0.184 |
| Q6T | 1.85 |
| Q2N | 0.125 |
| Q2I | 0.0274 |
| R4K | 0.0103 |
| L7I | 0.176 |

Series 2 — method: protein-binding microarray; form: double-stranded DNA, one strand shown; sample: in vitro; concentration: 2540 nM top; setting: 60-bp whole probe; with: salmon DNA 0.4 mg/ml; relative to: random background probes; direction: higher = stronger binding; constant ends, left off below: GCCTAGCAC … GTCTTGATTCGCTTGACGCTGCTG
Target: Interferon regulatory factor 3, full length, phosphomimetic (IRF3, Homo sapiens, UniProt Q14653, residues 1-427, S386D/S396D/S398D/S402D/T404D/S405D)
Target sequence (chain): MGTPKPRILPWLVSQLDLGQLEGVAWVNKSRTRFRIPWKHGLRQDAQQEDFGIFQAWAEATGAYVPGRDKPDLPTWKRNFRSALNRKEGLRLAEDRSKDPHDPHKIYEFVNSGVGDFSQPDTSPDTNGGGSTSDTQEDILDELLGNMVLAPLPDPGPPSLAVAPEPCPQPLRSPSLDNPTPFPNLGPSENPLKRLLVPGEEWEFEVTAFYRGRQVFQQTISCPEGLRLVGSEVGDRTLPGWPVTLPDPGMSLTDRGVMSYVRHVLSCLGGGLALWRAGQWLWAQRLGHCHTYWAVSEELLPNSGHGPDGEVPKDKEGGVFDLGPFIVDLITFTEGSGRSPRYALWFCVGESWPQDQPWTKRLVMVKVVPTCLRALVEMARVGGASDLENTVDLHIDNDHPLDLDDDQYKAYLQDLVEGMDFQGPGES
| Sequence | fitted relative affinity [z-score] |
| --- | --- |
| CAATATTAGAGTCTCAACCCGTGCTAG | 0.329 |
| TCATATTTATAAATTATACTGTGCTAG | 0.794 |
| GACGGTATCCCTTTCCTGACGTGCTAG | 6.3 |
| GATGATTTCAGTTCCGAGACGTGCTAG | 2.8 |
| TCACCTCTAACTTCCCAACTGTGCTAG | 0.532 |
| GACGGTTCCCTTTCCCTGACGTGCTAG | 5.76 |
| GACGATTTCGGTTCCGAGACGTGCTAG | 5.82 |
| TTTTCATTGTTTTTCATCATGTGCTAG | 2.03 |
| TTAGATTTCGGGTATGGATTAGTGCTA | 1.12 |
| TCATATAGGTTGTTTCTAACTGTGCTA | 0.81 |
| TCAGTTTTCGCTTTCTTACTGTGCTAG | 4.74 |
| TTAGCTCTCCTTCTCCTTTAGTGCTAG | 2.86 |
| TTAGGTTTCGACACTGGGCTAGTGCTA | 2.39 |
| GACGGTTTCGGGTTACGGGACGTGCTA | 5.35 |
| TTAGGTCTCGGTTTCGGGTAGTGCTAG | 3.73 |
| AGAGCTTGTAGCCATCTTTGGTGCTAG | 0.435 |
| GACGACATCGGGTATCGAGACGTGCTA | -0.478 |
| GACGATATCAGTATCGAGGCGTGCTAG | 1.06 |
| GAACCTTCCCCTCTAGGTTCGTGCTAG | 1.81 |
| GACGGTATCGACAATCGGGACGTGCTA | 0.332 |
| TTAGGACTGGGGACGGGGTTAGTGCTA | -0.62 |
| TTAGGTAGCCTACTGCTTTAGTGCTAG | -0.0842 |
| TTAGGACTGGGTTTCAGTTAGTGCTAG | 0.467 |
| TCATCATTCCAATTCTTACTGTGCTAG | 1.13 |
| GACGGACTGGACACTGTGGACGTGCTA | -0.493 |

Series 3 — method: universal PBM; form: double-stranded DNA, one strand shown; sample: in vitro; concentration: 600 nM; direction: higher = stronger binding
Target: Sal-like protein 4, full length isoform A (SALL4, Homo sapiens, UniProt Q9UJQ4, residues 1-1053)
UniProt Q9UJQ4, sequence (whole entry, looked up): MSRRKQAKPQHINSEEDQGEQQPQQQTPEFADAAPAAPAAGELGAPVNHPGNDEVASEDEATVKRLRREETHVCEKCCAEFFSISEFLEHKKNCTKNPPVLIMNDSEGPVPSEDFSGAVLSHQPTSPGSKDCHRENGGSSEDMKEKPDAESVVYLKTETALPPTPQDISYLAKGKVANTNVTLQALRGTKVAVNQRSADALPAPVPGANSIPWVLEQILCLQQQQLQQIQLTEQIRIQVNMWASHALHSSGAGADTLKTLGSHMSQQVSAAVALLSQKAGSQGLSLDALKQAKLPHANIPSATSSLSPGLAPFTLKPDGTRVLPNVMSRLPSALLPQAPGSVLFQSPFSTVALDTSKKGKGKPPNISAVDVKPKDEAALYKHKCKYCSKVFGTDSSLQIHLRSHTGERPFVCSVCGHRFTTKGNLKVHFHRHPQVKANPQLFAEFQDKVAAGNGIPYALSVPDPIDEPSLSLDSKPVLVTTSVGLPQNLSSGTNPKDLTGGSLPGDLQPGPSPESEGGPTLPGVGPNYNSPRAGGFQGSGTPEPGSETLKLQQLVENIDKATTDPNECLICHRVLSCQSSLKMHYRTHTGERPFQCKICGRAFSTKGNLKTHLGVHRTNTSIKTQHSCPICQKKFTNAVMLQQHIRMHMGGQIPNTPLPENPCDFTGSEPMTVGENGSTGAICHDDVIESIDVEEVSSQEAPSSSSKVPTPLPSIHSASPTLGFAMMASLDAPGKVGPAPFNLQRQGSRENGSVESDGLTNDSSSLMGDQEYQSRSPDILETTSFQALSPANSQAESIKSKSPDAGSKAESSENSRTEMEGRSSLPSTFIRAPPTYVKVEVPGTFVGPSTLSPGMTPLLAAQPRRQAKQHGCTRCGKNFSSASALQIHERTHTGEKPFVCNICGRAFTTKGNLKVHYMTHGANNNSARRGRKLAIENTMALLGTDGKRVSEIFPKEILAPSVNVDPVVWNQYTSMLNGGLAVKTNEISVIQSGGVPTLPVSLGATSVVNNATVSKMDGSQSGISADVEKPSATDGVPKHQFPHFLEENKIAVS
Setting: 8-mer, flanks averaged, mean of replicates
| Sequence | E-score |
| --- | --- |
| AAGAAGCC | -0.0157 |
| GTATCTAA | 0.268 |
| CCGTCCAC | -0.167 |
| CGCTAACC | -0.246 |
| CAATCACA | 0.193 |
| AGGCTATC | -0.0186 |
| ATTGAAGG | 0.143 |
| CAGCCGTC | -0.334 |
| CTCCCCAC | -0.186 |
| GACGCATA | 0.127 |
| ACCATCTA | -0.0319 |
| CCATGGTC | -0.278 |
| ATTCATCC | 0.101 |
| GCTTGGAC | -0.162 |
| AAGTTTGA | 0.143 |
| GATTATAA | 0.347 |
| CGCTAAGA | -0.102 |
| AAGTTGTG | 0.159 |
| GGAAAACA | 0.146 |
| GTGATGGA | 0.0159 |

Further values, each from its own experiment
| Molecule | target | assay | system | setting | how to read | endpoint | value |
| --- | --- | --- | --- | --- | --- | --- | --- |
| PhoQ, residues 284 288 289 292 302 303 SLCLSL | PhoP, residues 12 14 15 18 19 TQAIL (Escherichia coli, UniProt P23836) | Sort-seq, measured: YFP reporter | E. coli | PhoQ-PhoP variant library, with: 10 µM Mg2+ | relative to: high Mg2+ state, higher = stronger signaling | fold induction | 1.41 |

Some of these lines once more (series 3):
| Sequence | E-score |
| --- | --- |
| CAGCCGTC | -0.334 |
| CTCCCCAC | -0.186 |
| GACGCATA | 0.127 |
| ACCATCTA | -0.0319 |
| CCATGGTC | -0.278 |
